Published values gathered from unrelated publications.
Compare with care: the assays were run in different laboratories. Several values in a cell are separate wells, animals, samples, runs or records. ± gives the spread as reported.
Chain of UniProt Q00987 (whole entry, looked up): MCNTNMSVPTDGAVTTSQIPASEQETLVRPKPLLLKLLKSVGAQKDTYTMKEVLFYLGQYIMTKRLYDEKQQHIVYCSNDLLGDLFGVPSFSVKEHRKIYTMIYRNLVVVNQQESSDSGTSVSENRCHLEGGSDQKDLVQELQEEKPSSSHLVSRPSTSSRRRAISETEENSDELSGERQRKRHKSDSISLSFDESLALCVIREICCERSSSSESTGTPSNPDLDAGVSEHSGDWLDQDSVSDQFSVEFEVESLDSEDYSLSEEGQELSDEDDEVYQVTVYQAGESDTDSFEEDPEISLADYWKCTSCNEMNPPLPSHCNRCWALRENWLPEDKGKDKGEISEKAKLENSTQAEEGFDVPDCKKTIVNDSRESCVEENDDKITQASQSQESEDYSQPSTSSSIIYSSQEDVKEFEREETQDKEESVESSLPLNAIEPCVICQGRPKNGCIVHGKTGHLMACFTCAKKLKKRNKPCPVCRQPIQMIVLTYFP
Chain of UniProt O00089 (whole entry, looked up): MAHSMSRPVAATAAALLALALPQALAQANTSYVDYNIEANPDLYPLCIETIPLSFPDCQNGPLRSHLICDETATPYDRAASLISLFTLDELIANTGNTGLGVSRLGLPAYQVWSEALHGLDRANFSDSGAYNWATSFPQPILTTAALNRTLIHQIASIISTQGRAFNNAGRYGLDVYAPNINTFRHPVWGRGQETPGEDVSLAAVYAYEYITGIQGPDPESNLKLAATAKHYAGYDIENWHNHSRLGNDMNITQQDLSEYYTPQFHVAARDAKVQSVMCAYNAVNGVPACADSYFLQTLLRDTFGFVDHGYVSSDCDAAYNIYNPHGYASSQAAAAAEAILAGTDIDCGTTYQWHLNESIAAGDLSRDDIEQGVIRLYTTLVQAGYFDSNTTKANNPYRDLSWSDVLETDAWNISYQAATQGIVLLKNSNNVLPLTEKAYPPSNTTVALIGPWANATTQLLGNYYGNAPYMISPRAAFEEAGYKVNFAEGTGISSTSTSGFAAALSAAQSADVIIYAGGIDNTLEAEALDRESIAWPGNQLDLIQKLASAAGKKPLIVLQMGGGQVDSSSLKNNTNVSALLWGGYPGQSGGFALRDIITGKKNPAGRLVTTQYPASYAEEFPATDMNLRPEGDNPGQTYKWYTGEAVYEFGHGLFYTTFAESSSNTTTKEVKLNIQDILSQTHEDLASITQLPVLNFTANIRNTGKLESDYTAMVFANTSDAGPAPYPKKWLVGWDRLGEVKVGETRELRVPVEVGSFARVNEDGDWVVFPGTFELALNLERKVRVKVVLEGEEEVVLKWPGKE
Chain of UniProt Q8VDG7 (whole entry, looked up): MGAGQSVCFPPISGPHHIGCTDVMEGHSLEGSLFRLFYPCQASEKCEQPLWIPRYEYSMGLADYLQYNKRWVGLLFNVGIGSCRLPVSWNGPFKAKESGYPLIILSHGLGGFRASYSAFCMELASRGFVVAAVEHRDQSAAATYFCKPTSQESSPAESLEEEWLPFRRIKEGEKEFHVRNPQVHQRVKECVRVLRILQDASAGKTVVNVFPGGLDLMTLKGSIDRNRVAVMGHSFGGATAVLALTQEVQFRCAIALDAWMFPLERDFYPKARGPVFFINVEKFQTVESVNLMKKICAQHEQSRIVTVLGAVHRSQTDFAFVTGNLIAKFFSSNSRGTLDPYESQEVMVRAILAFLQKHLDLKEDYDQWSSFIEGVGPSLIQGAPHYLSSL
Chain of UniProt Q007T0 (whole entry, looked up): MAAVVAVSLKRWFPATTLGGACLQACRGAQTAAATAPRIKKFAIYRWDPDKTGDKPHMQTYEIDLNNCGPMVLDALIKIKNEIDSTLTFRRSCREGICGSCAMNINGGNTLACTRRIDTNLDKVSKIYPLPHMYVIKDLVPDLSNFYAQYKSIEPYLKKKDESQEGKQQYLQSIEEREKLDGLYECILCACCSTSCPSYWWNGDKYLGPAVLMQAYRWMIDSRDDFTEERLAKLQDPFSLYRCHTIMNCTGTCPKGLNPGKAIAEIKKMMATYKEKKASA
Chain of UniProt A5GZW8 (whole entry, looked up): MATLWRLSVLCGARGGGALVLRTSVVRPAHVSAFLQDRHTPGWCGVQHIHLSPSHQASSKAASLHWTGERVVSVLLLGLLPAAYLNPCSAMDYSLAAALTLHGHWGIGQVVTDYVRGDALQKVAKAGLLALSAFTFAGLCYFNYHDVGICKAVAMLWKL
Chain of UniProt D0VWV4 (whole entry, looked up): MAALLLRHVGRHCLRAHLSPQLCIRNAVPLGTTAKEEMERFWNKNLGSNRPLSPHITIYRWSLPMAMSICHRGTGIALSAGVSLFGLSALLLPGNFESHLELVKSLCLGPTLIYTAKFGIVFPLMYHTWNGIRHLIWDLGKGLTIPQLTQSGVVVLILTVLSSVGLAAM
Chain of UniProt Q9ULW8 (whole entry, looked up): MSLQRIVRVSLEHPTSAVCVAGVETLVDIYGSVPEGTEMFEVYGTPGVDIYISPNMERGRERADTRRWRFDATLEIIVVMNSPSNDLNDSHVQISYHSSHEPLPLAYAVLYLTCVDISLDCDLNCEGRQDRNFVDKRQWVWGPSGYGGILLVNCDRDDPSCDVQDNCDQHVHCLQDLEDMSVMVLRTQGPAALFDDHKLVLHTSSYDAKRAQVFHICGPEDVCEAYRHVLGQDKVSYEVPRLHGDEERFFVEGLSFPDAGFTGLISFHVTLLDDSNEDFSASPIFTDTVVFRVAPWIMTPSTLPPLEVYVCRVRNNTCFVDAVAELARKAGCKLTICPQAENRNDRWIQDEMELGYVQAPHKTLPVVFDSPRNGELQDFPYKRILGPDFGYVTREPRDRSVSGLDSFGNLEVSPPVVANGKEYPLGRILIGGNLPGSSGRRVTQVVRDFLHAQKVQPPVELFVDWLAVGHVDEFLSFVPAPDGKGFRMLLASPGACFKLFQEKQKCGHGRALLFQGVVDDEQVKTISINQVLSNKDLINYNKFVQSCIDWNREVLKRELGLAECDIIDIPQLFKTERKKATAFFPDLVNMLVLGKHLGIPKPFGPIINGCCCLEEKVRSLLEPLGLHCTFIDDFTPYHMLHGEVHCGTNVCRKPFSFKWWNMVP
Chain of UniProt Q6DWJ6 (whole entry, looked up): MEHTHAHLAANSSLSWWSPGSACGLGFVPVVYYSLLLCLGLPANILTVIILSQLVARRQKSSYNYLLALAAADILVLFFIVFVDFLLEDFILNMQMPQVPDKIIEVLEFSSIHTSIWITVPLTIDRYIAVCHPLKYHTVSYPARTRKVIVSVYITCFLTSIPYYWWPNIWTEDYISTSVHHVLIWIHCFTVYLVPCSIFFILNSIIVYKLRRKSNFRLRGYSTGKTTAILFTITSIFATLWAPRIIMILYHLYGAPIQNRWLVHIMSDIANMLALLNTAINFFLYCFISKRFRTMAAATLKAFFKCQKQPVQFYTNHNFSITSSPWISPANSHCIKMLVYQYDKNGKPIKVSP
Chain of UniProt P32245 (whole entry, looked up): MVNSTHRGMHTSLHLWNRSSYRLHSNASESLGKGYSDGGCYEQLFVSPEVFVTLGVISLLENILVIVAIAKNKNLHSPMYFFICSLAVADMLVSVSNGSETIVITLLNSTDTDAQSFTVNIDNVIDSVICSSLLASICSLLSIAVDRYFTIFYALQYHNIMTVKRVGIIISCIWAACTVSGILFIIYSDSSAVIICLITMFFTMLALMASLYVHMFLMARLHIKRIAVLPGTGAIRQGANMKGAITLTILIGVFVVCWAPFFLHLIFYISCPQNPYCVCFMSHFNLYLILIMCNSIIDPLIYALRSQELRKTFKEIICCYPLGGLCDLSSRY
Chain of UniProt P34947 (whole entry, looked up): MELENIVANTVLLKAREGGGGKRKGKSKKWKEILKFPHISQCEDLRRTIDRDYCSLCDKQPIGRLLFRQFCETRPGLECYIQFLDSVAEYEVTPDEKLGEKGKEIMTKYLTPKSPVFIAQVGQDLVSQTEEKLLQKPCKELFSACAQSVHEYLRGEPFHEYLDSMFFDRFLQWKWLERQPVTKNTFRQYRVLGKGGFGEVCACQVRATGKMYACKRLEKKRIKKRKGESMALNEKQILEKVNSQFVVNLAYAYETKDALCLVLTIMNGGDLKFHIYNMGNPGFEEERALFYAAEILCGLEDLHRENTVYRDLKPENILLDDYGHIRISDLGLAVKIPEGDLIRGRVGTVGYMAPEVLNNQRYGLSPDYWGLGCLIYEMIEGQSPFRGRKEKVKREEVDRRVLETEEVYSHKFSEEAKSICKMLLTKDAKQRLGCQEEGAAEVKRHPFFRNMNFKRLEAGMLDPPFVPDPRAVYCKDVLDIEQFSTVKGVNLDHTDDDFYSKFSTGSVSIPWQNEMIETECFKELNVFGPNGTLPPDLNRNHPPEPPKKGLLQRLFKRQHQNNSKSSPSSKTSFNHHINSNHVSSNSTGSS
Chain of UniProt P25021 (whole entry, looked up): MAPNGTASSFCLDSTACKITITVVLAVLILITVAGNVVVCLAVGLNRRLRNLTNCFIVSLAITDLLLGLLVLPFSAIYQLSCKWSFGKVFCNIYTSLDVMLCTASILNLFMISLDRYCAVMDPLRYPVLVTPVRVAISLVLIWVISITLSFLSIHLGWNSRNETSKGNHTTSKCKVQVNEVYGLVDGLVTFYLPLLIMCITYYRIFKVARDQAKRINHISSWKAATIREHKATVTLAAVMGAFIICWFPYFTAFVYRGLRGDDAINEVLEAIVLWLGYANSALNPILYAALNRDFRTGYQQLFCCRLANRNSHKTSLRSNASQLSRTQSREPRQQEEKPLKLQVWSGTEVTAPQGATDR
Chain of UniProt P47936 (whole entry, looked up): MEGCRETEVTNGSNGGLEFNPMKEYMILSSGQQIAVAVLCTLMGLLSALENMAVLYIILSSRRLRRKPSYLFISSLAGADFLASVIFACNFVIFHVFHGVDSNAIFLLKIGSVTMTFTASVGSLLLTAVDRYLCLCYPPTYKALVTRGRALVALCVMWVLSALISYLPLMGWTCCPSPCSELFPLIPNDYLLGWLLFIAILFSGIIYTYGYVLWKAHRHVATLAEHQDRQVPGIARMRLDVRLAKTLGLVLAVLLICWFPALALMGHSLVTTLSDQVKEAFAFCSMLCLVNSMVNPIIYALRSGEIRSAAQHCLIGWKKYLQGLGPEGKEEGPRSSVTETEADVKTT

Structure (SMILES) = C[C@H](NCc1ccc(-c2ccc(C(F)(F)F)cc2)cc1)C(N)=O; target = PAK2 (Homo sapiens, UniProt Q13177); assay = cell-free assay, competition with immobilised ligand; conditions = 1 µM; endpoint = inhibition; result = 22%
Structure (SMILES) = CC[C@H](C)[C@@H]1NC(=O)[C@H](CC(C)C)NC(=O)CNC(=O)[C@H](CCCNC(=N)N)NC(=O)[C@H](Cc2c[nH]c3ccccc23)NC(=O)[C@H](CCSC)NC(=O)[C@H](CO)NC(=O)[C@H](CCC(=O)O)NC(=O)[C@H](Cc2ccccc2)NC(=O)[C@H](CC(=O)O)NC(=O)[C@H]([C@@H](C)O)NC(=O)CNC(=O)[C@H](CCC(=O)O)NC(=O)[C@H]([C@@H](C)O)NC(=O)CNC(=O)[C@H](CC(=O)O)NC1=O; target = MDM2 (Homo sapiens, UniProt Q00987); assay = MDM2-ligand binding, inhibitor, AlphaLISA competition; conditions = 25 µM, together with: GST-tagged MDM2 ligand; scale = lower = stronger inhibition; endpoint = AlphaLISA signal; result = 1340 a.u. and 1080 a.u. and 1250 a.u.
Structure (SMILES) = CC(C)[C@H]1NC(=O)C[C@H]2/C=C/CCSSC[C@@H](NC1=O)C(=O)N[C@H](Cc1cccc3ccccc13)C(=O)NCC(=O)O2; target = Mitogen-activated protein kinase kinase kinase 7, with TAB1 (MAP3K7, Homo sapiens, UniProt O43318); conditions = 10 µM; endpoint = inhibition; result = 9.5%
Structure (SMILES) = CCOC(=O)[C@](CC)(CCCSCCOCCOCCNc1ccc([N+](=O)[O-])c2nonc12)NC(=O)c1ccc(C2CC2)c(Cc2ccc(F)cc2)n1; target = Cnr2 (Mus musculus, UniProt P47936); assay = cAMP, agonist; endpoint = Emax; result = 95%
Structure (SMILES) = CS(C)(=O)=Nc1ccc(-c2ccc(-c3nc4cc(O[C@@H]5CO[C@H]6[C@@H]5OC[C@H]6O)[nH]c4cc3F)cc2)cc1; target = MC4R (Homo sapiens, UniProt P32245); assay = calcium signal, antagonist; conditions = 10 µM; endpoint = inhibition; result = 17%
Structure (SMILES) = Cc1cc(-c2ccc3ccccc3c2)nnc1NCCN1CCN(C)CC1; target = Slc6a2 (Rattus norvegicus, UniProt Q9WTR4); assay = monoamine uptake; system = rat synaptosomes; conditions = concentration not given; endpoint = uptake inhibition; result = negative
Structure (SMILES) = CON(C(=O)c1cn(C)nc1C(F)F)C(C)Cc1c(Cl)cc(Cl)cc1Cl (stereo not drawn); target = SDHD/SDHC/SDHB (Sus scrofa, UniProt A5GZW8+D0VWV4+Q007T0); assay = enzyme activity, inhibitor, DCIP reduction; system = pig; conditions = 0.6 µM, together with: DCIP 10 µM; endpoint = reaction velocity; result = 0.00192 µM/s and 0.00173 µM/s and 0.00175 µM/s
Structure (SMILES) = C[C@]1(COC(=O)c2ccccc2O)[C@H](C(=O)O)N2C(=O)/C(=C/c3ccccn3)[C@H]2S1(=O)=O; target = Beta-lactamase (blaOXA-33, Acinetobacter baumannii, UniProt Q8RLA6); endpoint = Ki (inactivation); result = 920 ± 152 nM
Structure (SMILES) = COCC1CCCCN1C(=O)n1cc(C(O)(c2ccccc2)c2ccccc2)nn1 (stereo not drawn); target = Isoamyl acetate-hydrolyzing esterase 1 homolog (Iah1, Mus musculus, UniProt Q9DB29); assay = probe labelling, inhibitor, competitive ABPP-SILAC, item: Iah1; system = mouse T cells; conditions = concentration not given, 4 h, protein level; scale = relative to: treated over DMSO cells, lower = stronger inhibition; endpoint = SILAC activity ratio; result = 1.38
Structure (SMILES) = C#CCCCCOc1ccc2c(c1)CCCN2C(=O)CCl; target = ALDH1B1 (Homo sapiens, UniProt P30837); assay = mass spectrometry profiling; system = H460 cell lysate; conditions = 100 µM over 10 µM, UniProt P30837; scale = relative to: high over low concentration; endpoint = reactivity ratio; result = 1.05
Structure (SMILES) = CCOC(=O)[C@@H]1Cc2c(cc([N+](=O)[O-])cc2[N+](=O)[O-])[C@H](O)[C@]12C(=O)Nc1ccc(Br)cc12; target = BMPR2 (Homo sapiens, UniProt Q13873); assay = KINOMEscan; conditions = 100 nM; scale = relative to: DMSO control; endpoint = remaining binding; result = 100%
Structure (SMILES) = O=C(N[C@@H]1c2ccccc2C[C@H]1N1CCCC1)c1ccc(-c2ccnc3[nH]ccc23)nc1; target = MAP2K4 (Homo sapiens, UniProt P45985); assay = binding, competition with immobilised ligand; conditions = 3 µM; endpoint = remaining binding; result = 56%
Structure (SMILES) = CN(C)[C@H]1C[C@@]23CC[C@@]4(O2)C(=CC[C@]2(C)[C@@H](c5ccc6ccncc6c5)CC[C@H]24)C=C3[C@@H](O)[C@@H]1O; target = PKN2 (Homo sapiens, UniProt Q16513); assay = ATP probe labelling, inhibitor, KiNativ profiling; conditions = 1 µM; endpoint = inhibition; result = -5%
Structure (SMILES) = CC(C)OC(=O)OCOC(=O)C(CCC(=O)O)CP(=O)(OCOC(=O)OC(C)C)OCOC(=O)OC(C)C (stereo not drawn); target = Glutamate carboxypeptidase 2 (Rattus norvegicus, UniProt P70627); assay = PET; system = rat, kidney; conditions = intravenous, 1 mg/kg, 30 min before tracer, together with: [68Ga]Ga-PSMA tracer; scale = relative to: controls; endpoint = reduction of tracer uptake; result = 20%
Structure (SMILES) = CN(C)CCCSC(=S)N1CCN(C(=O)/C=C/c2coc3ccccc3c2=O)CC1; target = Nucleoprotein (N, Tomato spotted wilt virus, UniProt P25999, Y184A); assay = binding, microscale thermophoresis; conditions = 0.1221 µM; scale = dose series; endpoint = MST response; result = 838 a.u.
Structure (SMILES) = COc1cc2c3cc1Oc1cc(ccc1O)CC1c4c(cc(OC)c(O)c4Oc4ccc(cc4)CC3N(C)CC2)CCN1C (stereo not drawn); target = Glideosome-associated protein 50 (GAP50, Plasmodium falciparum, UniProt Q8I2X3); assay = binding, surface plasmon resonance; conditions = 1:1 binding model; endpoint = koff; result = 0.442 s⁻¹
Structure (SMILES) = N[C@H](C(=O)N1CCCC1)C1CCN(c2nccc3c(-c4ncc(Cl)cc4Cl)cccc23)CC1; target = PADI3 (Homo sapiens, UniProt Q9ULW8); assay = enzyme activity; conditions = 0.6144 µM, together with: Ca2+ 0.25 mM; endpoint = kcat; result = 0.0199 s⁻¹ and 0.0175 s⁻¹
Structure (SMILES) = CC(C)CC(O)(CC(C)C)c1cn(C(=O)N2CCCC2)nn1; target = Platelet-activating factor acetylhydrolase 2, cytoplasmic (Mus musculus, UniProt Q8VDG7); assay = probe labelling, inhibitor, competitive ABPP-SILAC; system = mouse T cells; conditions = concentration not given, 4 h, single peptide; scale = relative to: treated over DMSO cells, lower = stronger inhibition; endpoint = SILAC activity ratio; result = 0.92 and 1.02 and 0.88 and 1.12 and 1.1
Structure (SMILES) = CC[C@H](C)[C@H](NC(=O)[C@H](CCCNC(=N)N)NC(=O)[C@H](CCCNC(=N)N)NC(=O)[C@H](CC(C)C)NC(=O)[C@H](Cc1ccccc1)NC(=O)CNC(=O)CNC(=O)[C@@H](N)Cc1ccc(O)cc1)C(=O)N[C@@H](CCCNC(=N)N)C(=O)N1CCC[C@H]1C(=O)N[C@@H](CCCCN)C(=O)N[C@@H](CC(C)C)C(=O)N[C@@H](CCCCN)C(=O)O; target = GPR139 (Homo sapiens, UniProt Q6DWJ6); assay = G protein activation, agonist, BRET, item: Gα13; system = HEK-293T/17; conditions = 40 µM; scale = relative to: GαoA response; endpoint = Emax; result = 8.69% and 6.87%
Structure (SMILES) = C/C(=N\OCCCN1CCCCC1)c1ccc(C(F)(F)F)cc1; target = HRH2 (Homo sapiens, UniProt P25021); assay = agonist, cAMP; conditions = 10 µM; endpoint = activation; result = -2.72%
Structure (SMILES) = COc1ccccc1-c1n[nH]c2nc(N[C@H]3CC[C@H](NS(=O)(=O)CC(C)C)CC3)ncc12; target = cdc2-related kinase 12 (Leishmania donovani, UniProt A0A3S7WQK2); assay = kinobead competition pull-down; system = Leishmania donovani, cell extract; conditions = 0.4 µM, unit not given; scale = relative to: vehicle; endpoint = remaining binding; result = 0.26
Structure (SMILES) = O=C(CCCC[C@@H]1SC[C@@H]2NC(=O)N[C@@H]21)NCCCCCCCCN1[C@H]2[C@H](O)[C@@H](O)[C@H](O[C@@H]3OC[C@@H](O)[C@H](O)[C@H]3O)C[C@H]21 (stereo partly drawn); target = Exo-1,4-beta-xylosidase xlnD (Aspergillus niger, UniProt O00089); assay = probe labelling, biotin-ABP pulldown LC-MS/MS; system = xylan-induced secretome; conditions = no competitor; scale = relative to: total secretome; endpoint = fold enrichment; result = 12 fold and 11.2 fold and 15.8 fold
Structure (SMILES) = O=C1NC(=O)c2c1c1cc(F)c[n+]3c1c1c2c2cc(O)ccc2[n]1[Ru-4]312([N]=C=S)[S+]3CC[S+]1CC[S+]2CC3 (stereo not drawn); target = GRK5 (Homo sapiens, UniProt P34947); assay = enzyme activity; conditions = 100 nM, human enzyme, together with: 10 µM ATP; scale = relative to: untreated; endpoint = remaining activity; result = 55%
Structure (SMILES) = Cc1n[nH]c(C)c1CCCOc1cc(OCCCCCCNCCOCCOCCn2cc(CNc3ccc(C(=O)O)cc3)nn2)cc(C(=O)O)c1; target = Transthyretin (TTR, Homo sapiens, UniProt P02766); assay = fluorescent probe exclusion; system = human serum; conditions = 10 µM, 15:00:00; endpoint = probe binding remaining; result = 6.94%

Repeated from above:
Structure (SMILES) = CC(C)CC(O)(CC(C)C)c1cn(C(=O)N2CCCC2)nn1; target = Platelet-activating factor acetylhydrolase 2, cytoplasmic (Mus musculus, UniProt Q8VDG7); assay = probe labelling, inhibitor, competitive ABPP-SILAC; system = mouse T cells; conditions = concentration not given, 4 h, single peptide; scale = relative to: treated over DMSO cells, lower = stronger inhibition; endpoint = SILAC activity ratio; result = 0.92 and 1.02 and 0.88 and 1.12 and 1.1
Structure (SMILES) = COc1ccccc1-c1n[nH]c2nc(N[C@H]3CC[C@H](NS(=O)(=O)CC(C)C)CC3)ncc12; target = cdc2-related kinase 12 (Leishmania donovani, UniProt A0A3S7WQK2); assay = kinobead competition pull-down; system = Leishmania donovani, cell extract; conditions = 0.4 µM, unit not given; scale = relative to: vehicle; endpoint = remaining binding; result = 0.26
